{"data": "Assay results pooled from the literature", "target": "Phosphatidylinositol 4-phosphate 3-kinase C2 domain-containing subunit beta (PIK3C2B, Homo sapiens, UniProt O00750)", "note": "Lines come from different studies, so protocols differ.", "sequence of UniProt O00750 (whole entry, looked up)": "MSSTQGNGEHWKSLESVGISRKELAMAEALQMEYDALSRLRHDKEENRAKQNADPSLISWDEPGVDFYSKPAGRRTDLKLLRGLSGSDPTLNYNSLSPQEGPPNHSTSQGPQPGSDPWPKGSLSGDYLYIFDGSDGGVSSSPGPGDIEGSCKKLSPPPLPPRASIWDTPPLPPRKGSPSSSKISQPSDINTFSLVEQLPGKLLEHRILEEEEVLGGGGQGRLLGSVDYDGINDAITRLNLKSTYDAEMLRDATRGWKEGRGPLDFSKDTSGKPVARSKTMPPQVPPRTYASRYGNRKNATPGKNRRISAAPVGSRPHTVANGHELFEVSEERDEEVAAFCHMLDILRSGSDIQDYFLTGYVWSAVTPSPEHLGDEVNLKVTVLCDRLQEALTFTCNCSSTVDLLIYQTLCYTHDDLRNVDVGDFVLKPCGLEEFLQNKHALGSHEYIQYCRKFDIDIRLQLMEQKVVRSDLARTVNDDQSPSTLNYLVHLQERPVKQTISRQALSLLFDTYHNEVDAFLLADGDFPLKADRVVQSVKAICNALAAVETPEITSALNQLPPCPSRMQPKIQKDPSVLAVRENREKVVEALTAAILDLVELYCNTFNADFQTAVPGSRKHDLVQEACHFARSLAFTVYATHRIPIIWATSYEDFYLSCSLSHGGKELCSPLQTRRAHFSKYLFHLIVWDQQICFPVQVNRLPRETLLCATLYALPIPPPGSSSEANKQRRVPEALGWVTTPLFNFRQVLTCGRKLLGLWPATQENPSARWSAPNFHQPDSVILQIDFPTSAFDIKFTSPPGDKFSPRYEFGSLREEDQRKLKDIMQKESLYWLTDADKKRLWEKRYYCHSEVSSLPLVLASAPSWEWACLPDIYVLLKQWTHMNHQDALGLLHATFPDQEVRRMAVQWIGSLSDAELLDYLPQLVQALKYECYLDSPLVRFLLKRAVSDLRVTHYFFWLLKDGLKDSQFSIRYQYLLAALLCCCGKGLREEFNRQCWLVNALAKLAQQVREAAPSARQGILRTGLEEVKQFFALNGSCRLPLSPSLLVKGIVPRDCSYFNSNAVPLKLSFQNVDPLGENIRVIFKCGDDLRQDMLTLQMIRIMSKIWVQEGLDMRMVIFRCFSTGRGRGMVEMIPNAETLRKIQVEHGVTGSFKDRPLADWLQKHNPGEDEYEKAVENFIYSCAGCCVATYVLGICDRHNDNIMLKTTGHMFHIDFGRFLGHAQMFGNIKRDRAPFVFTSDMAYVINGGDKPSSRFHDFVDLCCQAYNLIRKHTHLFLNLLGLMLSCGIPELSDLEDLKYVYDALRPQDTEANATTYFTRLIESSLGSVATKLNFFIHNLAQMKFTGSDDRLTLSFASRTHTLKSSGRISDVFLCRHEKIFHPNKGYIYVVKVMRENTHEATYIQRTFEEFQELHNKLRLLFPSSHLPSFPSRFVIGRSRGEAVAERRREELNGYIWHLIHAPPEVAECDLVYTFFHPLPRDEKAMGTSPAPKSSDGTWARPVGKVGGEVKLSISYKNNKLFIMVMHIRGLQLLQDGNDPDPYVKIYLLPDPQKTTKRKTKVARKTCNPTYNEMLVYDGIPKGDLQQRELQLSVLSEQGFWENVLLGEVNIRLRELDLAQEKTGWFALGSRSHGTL"}
{"Compound": "CN1CCN(Cc2ccc(NC(=O)c3cccc(C#Cc4cnc(N)c5ncccc45)c3)cc2C(F)(F)F)CC1", "test": "cell-free assay, competition with immobilised ligand", "conditions": "50 nM", "endpoint": "remaining binding", "value": "85%"}
{"Compound": "C=C1CCCCCCCCCC(CO)C1=O (stereo not shown)", "test": "cell-free assay", "conditions": "10 µM", "endpoint": "remaining signal", "value": "70%"}
{"Compound": "CS(=O)(=O)Nc1cccc(-c2csc3cnc(Nc4ccc(N5CCN(CCCCCOc6cccc7c6C(=O)N(C6CCC(=O)NC6=O)C7=O)CC5)cc4)nc23)c1 (stereo not shown)", "test": "probe labelling, inhibitor, KiNativ chemoproteomics", "system": "MOLT-4", "conditions": "1 µM", "endpoint": "inhibition", "value": "4.06%"}
{"Compound": "C=CC(=O)N1CCCC(n2c(=O)c3ncccc3n(Cc3ccc(Oc4ccccc4)cc3)c2=O)C1 (stereo not shown)", "test": "cell-free assay, competition with immobilised ligand", "conditions": "1 µM", "endpoint": "remaining binding", "value": "63%"}
{"Compound": "Cc1cc(NC(=O)[C@H](O)c2cc(F)cc(F)c2)ccc1-c1cnc(N)c(C(=O)NC(C)C)c1", "test": "binding, competition with immobilised ligand", "conditions": "10 µM", "endpoint": "remaining binding", "value": "7.3%"}
{"Compound": "COc1cc(Nc2nccc(-c3cnn4nc(OC)ccc34)n2)cc(C(F)(F)F)c1", "test": "binding, competition with immobilised ligand", "conditions": "1 µM", "endpoint": "remaining binding", "value": "78%"}
{"Compound": "Cc1ccc(-c2c(/C=C(\\C#N)C(=O)NC(C)C)n(CCCO)c3ncnc(N)c23)cc1", "test": "cell-free assay, competition with immobilised ligand", "conditions": "1 µM", "endpoint": "remaining binding", "value": "96%"}
{"Compound": "Nc1ncc2c(n1)-c1c([nH]c3ccc(C4=CCOCC4)cc13)CCC2", "test": "binding, competition with immobilised ligand", "conditions": "1 µM", "endpoint": "remaining binding", "value": "79%"}
{"Compound": "CN1CCN(Cc2ccc(-c3ccc(CO[C@H]4CCC[C@@H]4NC(=O)c4cc(-c5cnn(C)c5)cnc4N)cc3)cc2)CC1", "test": "enzyme activity, inhibitor", "conditions": "0.1 µM", "endpoint": "inhibition", "value": "-5%"}
{"Compound": "Cc1cnc2nc1Nc1cccc(c1)COC/C=C/COCc1cc(ccc1OCCN1CCOCC1)N2", "test": "binding", "conditions": "0.1 µM", "endpoint": "remaining binding", "value": "80%"}
{"Compound": "CC(=O)c1cnc(N)nc1N1CC[C@H]1c1nn2ccc(Cl)c2c(=O)n1-c1ccccc1", "test": "KINOMEscan competition binding", "conditions": "10 µM", "endpoint": "remaining binding", "value": "60%"}
{"Compound": "C=CC(=O)N1CCc2ccc(-n3c(=O)ccc4cnc5ccc(-c6cnn(C)c6)cc5c43)cc21", "test": "KINOMEscan", "conditions": "1 µM", "how to read": "reference: DMSO control", "endpoint": "remaining binding", "value": "100%"}
{"Compound": "CC(C)=CC1OC(C)(C)C2C=C3C(=O)C(Cl)=CC(O)C3C3C(O)C4OC4C(=O)C132 (stereo not shown)", "test": "cell-free assay, competition with immobilised ligand", "conditions": "10 µM", "endpoint": "remaining binding", "value": "58%"}
{"note": "A few entries again:"}
{"Compound": "C=CC(=O)N1CCCC(n2c(=O)c3ncccc3n(Cc3ccc(Oc4ccccc4)cc3)c2=O)C1 (stereo not shown)", "test": "cell-free assay, competition with immobilised ligand", "conditions": "1 µM", "endpoint": "remaining binding", "value": "63%"}
